Published values gathered from unrelated publications.
Each line is one published result; not all experiments were run side by side. Values joined by “and” are separate records of one study, mostly repeats; a detail may differ.
HDAC8: Histone deacetylase 8 (HDAC8, Homo sapiens, UniProt Q9BY41)
Sequence of UniProt Q9BY41 (whole entry, looked up): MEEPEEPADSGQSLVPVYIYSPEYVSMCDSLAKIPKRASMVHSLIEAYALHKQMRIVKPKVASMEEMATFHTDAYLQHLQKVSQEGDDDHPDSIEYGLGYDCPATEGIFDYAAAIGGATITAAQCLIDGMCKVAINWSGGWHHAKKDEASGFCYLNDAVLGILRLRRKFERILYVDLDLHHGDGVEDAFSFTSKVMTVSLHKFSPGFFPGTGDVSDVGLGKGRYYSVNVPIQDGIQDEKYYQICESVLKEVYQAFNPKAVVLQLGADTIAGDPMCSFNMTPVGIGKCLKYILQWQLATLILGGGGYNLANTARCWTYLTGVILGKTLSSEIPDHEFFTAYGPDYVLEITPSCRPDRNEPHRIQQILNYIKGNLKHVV
ADRA1A: Alpha-1A adrenergic receptor (ADRA1A, Homo sapiens, UniProt P35348)
Sequence of UniProt P35348 (whole entry, unmodified, looked up): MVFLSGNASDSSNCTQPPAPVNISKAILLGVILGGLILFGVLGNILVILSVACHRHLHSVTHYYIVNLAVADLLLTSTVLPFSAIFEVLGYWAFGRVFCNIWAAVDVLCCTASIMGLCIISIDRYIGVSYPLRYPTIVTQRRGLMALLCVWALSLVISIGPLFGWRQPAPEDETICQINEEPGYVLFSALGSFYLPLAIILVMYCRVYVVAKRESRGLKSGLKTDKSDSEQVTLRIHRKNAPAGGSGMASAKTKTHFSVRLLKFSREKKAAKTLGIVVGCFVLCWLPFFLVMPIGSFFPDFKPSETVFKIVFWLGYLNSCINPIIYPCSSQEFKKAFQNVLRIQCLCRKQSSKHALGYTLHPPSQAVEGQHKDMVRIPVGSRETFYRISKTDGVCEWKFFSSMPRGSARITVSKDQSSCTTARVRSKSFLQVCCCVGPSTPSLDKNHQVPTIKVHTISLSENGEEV
OSBP: Oxysterol-binding protein 1 (OSBP, Homo sapiens, UniProt P22059)
Sequence of UniProt P22059 (whole entry, looked up): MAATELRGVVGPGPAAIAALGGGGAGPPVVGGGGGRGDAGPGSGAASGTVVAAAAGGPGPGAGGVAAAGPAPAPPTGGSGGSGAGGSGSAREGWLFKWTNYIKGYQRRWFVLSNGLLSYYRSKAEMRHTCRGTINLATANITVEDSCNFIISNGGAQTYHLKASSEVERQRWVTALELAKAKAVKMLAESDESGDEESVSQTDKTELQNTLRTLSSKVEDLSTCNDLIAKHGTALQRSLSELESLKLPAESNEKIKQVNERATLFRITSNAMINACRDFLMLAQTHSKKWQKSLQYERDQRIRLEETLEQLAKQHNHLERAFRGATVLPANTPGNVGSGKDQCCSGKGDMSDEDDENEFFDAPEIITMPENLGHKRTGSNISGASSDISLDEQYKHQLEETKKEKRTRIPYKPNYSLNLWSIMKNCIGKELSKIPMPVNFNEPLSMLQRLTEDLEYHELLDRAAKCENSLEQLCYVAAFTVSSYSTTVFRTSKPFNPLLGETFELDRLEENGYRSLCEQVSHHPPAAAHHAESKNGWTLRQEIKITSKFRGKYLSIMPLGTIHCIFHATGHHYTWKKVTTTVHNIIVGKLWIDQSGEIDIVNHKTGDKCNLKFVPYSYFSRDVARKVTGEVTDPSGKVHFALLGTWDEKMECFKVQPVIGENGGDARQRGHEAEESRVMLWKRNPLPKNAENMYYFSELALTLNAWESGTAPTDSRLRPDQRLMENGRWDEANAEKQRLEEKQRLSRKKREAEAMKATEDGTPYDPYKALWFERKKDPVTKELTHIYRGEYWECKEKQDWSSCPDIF
Replicase polyprotein 1ab main protease: Replicase polyprotein 1ab, main protease (Feline coronavirus, UniProt Q98VG9)
TMEM97: Sigma intracellular receptor 2 (TMEM97, Homo sapiens, UniProt Q5BJF2)
Sequence of UniProt Q5BJF2 (whole entry, looked up): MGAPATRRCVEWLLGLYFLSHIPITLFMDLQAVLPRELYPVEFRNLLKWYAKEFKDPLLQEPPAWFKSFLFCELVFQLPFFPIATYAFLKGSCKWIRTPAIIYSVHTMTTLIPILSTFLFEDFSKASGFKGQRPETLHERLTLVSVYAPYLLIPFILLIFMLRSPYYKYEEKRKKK
Tspo: Translocator protein (Tspo, Rattus norvegicus, UniProt P16257)
Sequence of UniProt P16257 (whole entry, looked up): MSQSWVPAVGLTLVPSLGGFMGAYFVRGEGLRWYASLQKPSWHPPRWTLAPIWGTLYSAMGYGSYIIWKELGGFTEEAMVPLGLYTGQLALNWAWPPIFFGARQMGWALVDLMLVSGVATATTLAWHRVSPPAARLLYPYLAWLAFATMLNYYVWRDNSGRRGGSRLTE
ADRA2B: Alpha-2B adrenergic receptor (ADRA2B, Homo sapiens, UniProt P18089)
Sequence of UniProt P18089 (whole entry, looked up): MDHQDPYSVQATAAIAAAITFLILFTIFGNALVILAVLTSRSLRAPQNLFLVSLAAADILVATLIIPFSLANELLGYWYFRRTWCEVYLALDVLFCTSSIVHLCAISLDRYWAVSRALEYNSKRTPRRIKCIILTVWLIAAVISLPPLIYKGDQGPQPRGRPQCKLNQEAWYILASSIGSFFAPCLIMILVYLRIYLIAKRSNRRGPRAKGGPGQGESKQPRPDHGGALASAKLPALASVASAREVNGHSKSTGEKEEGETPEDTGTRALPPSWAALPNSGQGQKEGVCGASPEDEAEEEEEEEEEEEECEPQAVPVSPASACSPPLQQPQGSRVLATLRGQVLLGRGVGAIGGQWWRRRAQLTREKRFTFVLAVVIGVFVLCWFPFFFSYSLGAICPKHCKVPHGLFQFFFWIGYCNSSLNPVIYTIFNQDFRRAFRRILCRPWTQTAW
HTR2C: 5-hydroxytryptamine receptor 2C (HTR2C, Homo sapiens, UniProt P28335)
Sequence of UniProt P28335 (whole entry, looked up): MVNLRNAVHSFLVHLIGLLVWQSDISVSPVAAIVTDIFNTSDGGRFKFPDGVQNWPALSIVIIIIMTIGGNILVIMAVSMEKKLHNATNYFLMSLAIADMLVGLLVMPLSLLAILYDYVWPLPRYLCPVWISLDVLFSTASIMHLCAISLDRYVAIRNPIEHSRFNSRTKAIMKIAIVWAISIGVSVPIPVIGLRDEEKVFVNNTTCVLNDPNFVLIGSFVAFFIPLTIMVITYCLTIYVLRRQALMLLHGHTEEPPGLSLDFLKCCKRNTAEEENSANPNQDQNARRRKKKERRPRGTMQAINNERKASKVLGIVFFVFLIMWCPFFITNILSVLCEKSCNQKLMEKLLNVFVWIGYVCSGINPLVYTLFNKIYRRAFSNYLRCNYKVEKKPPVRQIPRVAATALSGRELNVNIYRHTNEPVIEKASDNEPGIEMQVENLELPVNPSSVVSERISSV
ADRA2C: Alpha-2C adrenergic receptor (ADRA2C, Homo sapiens, UniProt P18825)
Sequence of UniProt P18825 (whole entry, looked up): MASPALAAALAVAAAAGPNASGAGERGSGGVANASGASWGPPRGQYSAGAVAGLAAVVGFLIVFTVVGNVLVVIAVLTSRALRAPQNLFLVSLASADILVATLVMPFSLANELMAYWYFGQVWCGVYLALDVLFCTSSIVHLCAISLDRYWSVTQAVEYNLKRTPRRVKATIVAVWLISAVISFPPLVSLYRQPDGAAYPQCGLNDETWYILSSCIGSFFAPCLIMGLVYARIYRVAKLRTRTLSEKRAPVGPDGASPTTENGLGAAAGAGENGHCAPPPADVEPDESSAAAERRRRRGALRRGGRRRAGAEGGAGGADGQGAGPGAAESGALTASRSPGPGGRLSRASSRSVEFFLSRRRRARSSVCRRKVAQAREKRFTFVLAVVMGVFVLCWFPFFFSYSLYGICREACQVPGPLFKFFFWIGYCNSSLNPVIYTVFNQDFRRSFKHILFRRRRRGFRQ
OPRD1: Delta-type opioid receptor (OPRD1, Homo sapiens, UniProt P41143)
Sequence of UniProt P41143 (whole entry, looked up): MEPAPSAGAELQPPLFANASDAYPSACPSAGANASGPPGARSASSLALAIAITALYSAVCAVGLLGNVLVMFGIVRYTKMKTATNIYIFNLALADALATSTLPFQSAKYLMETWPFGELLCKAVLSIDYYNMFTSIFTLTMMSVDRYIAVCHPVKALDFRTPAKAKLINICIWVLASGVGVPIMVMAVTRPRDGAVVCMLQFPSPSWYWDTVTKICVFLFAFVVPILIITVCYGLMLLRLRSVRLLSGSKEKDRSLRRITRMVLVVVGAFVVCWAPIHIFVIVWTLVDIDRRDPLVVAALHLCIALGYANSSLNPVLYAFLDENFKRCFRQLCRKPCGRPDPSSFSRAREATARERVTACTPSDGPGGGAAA
Sequence of UniProt P14416 (whole entry, looked up): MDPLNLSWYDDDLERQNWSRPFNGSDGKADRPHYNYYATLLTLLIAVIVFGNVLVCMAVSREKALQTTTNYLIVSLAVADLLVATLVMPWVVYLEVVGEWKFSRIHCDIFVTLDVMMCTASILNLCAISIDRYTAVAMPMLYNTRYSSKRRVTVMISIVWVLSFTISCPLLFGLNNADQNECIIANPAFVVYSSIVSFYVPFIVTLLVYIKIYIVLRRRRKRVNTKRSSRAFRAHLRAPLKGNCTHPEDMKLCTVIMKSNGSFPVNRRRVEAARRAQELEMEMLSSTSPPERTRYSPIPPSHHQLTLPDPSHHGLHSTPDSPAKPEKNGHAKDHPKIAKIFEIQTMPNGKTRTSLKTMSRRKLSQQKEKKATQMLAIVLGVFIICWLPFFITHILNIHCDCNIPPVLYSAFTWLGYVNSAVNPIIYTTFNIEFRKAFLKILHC
Sequence of UniProt P48426 (whole entry, looked up): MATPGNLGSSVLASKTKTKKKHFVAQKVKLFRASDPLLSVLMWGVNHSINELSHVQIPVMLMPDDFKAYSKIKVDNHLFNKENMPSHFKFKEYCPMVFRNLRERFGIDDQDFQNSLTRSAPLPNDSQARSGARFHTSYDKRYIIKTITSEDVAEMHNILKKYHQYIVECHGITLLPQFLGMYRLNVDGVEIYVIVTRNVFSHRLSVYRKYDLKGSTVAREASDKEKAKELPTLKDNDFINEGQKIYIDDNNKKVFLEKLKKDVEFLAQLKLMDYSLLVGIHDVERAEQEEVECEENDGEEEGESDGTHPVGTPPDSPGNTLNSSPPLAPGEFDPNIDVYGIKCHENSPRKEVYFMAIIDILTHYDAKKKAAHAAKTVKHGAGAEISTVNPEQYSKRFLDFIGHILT

O=C(NO)c1cccc(OS(=O)(=O)Oc2ccc(Oc3ccccc3)cc2)c1
Ki (HDAC8; enzyme activity, inhibitor, fluorescence): 1040 nM

Cc1cc(Oc2ncccc2CN2CCN(c3cccc(C)c3C)CC2)ccc1-c1c(C)c(=O)[nH]c(=O)n1C
Ki (ADRA1A; ligand displacement, radioligand): 2240 nM

CCN(O)N=Nc1ccc(S(=O)(=O)Nc2cc(C)on2)cc1
inhibition (ABTS scavenging; 180 µg/mL): 24.8%

CCOc1ccccc1C(=O)CC(SCc1ccc(Cl)cc1)C(=O)O (stereo not shown)
Ki (OSBP; ligand displacement, FP): 135000 nM

COc1cc(-c2cncc3c2CN(C)Cc2cc(N4CCNCC4)ccc2-3)cc(OC)c1OC
remaining activity (TAOK1 (Homo sapiens, UniProt Q7L7X3); enzyme activity, inhibitor; 1 µM): 90%

CNc1ncc2c(/C=C/C(=O)N3CCC(OC)CC3)nn(Cc3cccc(C(F)(F)F)c3)c2n1
remaining activity (NEK9 (Homo sapiens, UniProt Q8TD19); enzyme activity, inhibitor, radiometric; 1 µM): 87%

O=C(NO)c1cc(F)cc(OS(=O)(=O)Oc2ccccc2)c1
Ki (HDAC6 (Homo sapiens, UniProt Q9UBN7); enzyme activity, inhibitor, fluorescence): 34 nM

CCOc1cccc(C(=O)CC(SCc2cccc(Br)c2)C(=O)O)c1 (stereo not shown)
Ki (OSBP; ligand displacement, FP): 107000 nM

N#CC[C@@]12C[C@@H]1[C@@H](n1cnc3c(NCCCCCCc4ccccc4)nc(I)nc31)[C@H](O)[C@@H]2O
Ki (SLC6A4 (Homo sapiens, UniProt P31645); ligand displacement, radioligand; cell membranes): 2930 nM

C[C@@H]1O[C@@H](Oc2cc(O)c3c(=O)c(O)c(-c4ccc(O)c(O)c4)oc3c2)[C@H](O)[C@H](O)[C@H]1O
Ki (Replicase polyprotein 1ab main protease; enzyme activity, inhibitor, fluorescence): 45200 nM

C#CCN(CCCN1CCN(c2ccc(F)cc2)CC1)Cc1ccc(C(=O)c2ccc([N+](=O)[O-])cc2)cc1
Ki (TMEM97; ligand displacement, radioligand; cell membranes): 70 nM and 69.4 nM

CCOc1ccc(C(=O)CC(SCc2ccc(Cl)cc2)C(=O)O)cc1OCC (stereo not shown)
Ki (OSBP; ligand displacement, FP): 220000 nM

CNC(=O)[C@@]12C[C@@H]1[C@@H](n1cnc3c(NC)cc(C#Cc4ccc(Cl)s4)nc31)[C@H](O)[C@@H]2O
Ki (Tspo; ligand displacement, radioligand): > 10000 nM

Cc1ccc(N2CCN(Cc3cccnc3Oc3ccc(-c4c(C)c(=O)[nH]c(=O)n4C)c(C)c3)CC2)cc1C
Ki (ADRA2B; ligand displacement, radioligand): 210 nM

N#C[C@@]12C[C@@H]1[C@@H](n1cnc3c(N[C@@H](C4CCC4)C4CC4)nc(I)nc31)[C@H](O)[C@@H]2O
Ki (HTR2C; ligand displacement, radioligand): 68 nM

C1=C/COCc2cc(ccc2OCCN2CCCC2)Nc2nccc(n2)-c2cccc(c2)COC/1
remaining binding (KIT (Homo sapiens, UniProt P10721, A829P); binding; 0.1 µM): 35%

O=C(NO)c1cccc(OS(=O)(=O)Oc2ccc3c(c2)OCO3)c1
Ki (HDAC8; enzyme activity, inhibitor, fluorescence): 60 nM

COc1cccc(-c2n[nH]c(SCc3ccccn3)n2)c1OC
concentration (male Sprague-Dawley rat, plasma; intravenous, 1 mg/kg, 4 h, single dose): 76.2 ng/mL

O=C(NO)c1cncc(OS(=O)(=O)Oc2ccc(-n3ccnc3)cc2)c1
Ki (HDAC8; enzyme activity, inhibitor, fluorescence): 436 nM

Cc1cc(Oc2ncccc2CN2CCN(c3ccc(C(F)(F)F)cc3[N+](=O)[O-])CC2)ccc1-c1c(C)c(=O)[nH]c(=O)n1C
Ki (ADRA2C; ligand displacement, radioligand): 794 nM

CNc1nc(C#Cc2ccc(Cl)s2)nc2c1ncn2[C@H]1[C@H](O)[C@H](O)[C@]2(C(=O)OC(C)C)C[C@H]12
Ki (Tspo; ligand displacement, radioligand): > 10000 nM

Cc1cc(Oc2ncccc2CN2CCN(c3ccccc3Br)CC2)ccc1-c1c(C)c(=O)[nH]c(=O)n1C
Ki (ADRA2C; ligand displacement, radioligand): 19.5 nM

CNC(=O)[C@@]12C[C@@H]1[C@@H](n1ccc3c(NC)ncnc31)[C@H](O)[C@@H]2O
Ki (OPRD1; ligand displacement, radioligand): > 10000 nM

O=C(NO)c1cncc(OS(=O)(=O)Oc2ccc(C(F)(F)F)cc2)c1
Ki (HDAC1 (Homo sapiens, UniProt Q13547); enzyme activity, inhibitor, fluorescence): 621 nM

Cc1cc(Oc2ncccc2CN2CCN(c3ccc([N+](=O)[O-])cc3C(F)(F)F)CC2)ccc1-c1c(C)c(=O)[nH]c(=O)n1C
Ki (ADRA2B; ligand displacement, radioligand): 1310 nM

OC[C@@]12C[C@@H]1[C@@H](n1cnc3c(NC(C4CCCC4)C4CCCC4)nc(Cl)cc31)[C@H](O)[C@@H]2O
Ki (HTR2C; ligand displacement, radioligand): 1270 nM

Cc1ccc(N(O)N=Nc2ccc(S(=O)(=O)Nc3cc(C)on3)cc2)cc1
inhibition (ABTS scavenging; 240 µg/mL): 46.8%

COc1ccc(C(=O)CC(SCc2ccc(Cl)cc2)C(=O)O)cc1 (stereo not shown)
Ki (OSBP; ligand displacement, FP): 320000 nM

Cc1cc(Oc2ncccc2CN2CCN(c3ccccc3Cl)CC2)ccc1-c1c(C)c(=O)[nH]c(=O)n1C
Ki (ADRA2C; ligand displacement, radioligand): ~11 nM and 11 nM

CCOc1ccc(-c2cc(C(=O)O)c(-c3ccc(Cl)cc3)o2)cc1
Ki (OSBP; ligand displacement, FP): > 100000 nM

CNC(=O)[C@@]12C[C@@H]1[C@@H](n1cnc3c(NCc4cccc(Cl)c4)nc(C#Cc4ccccc4Cl)nc31)[C@H](O)[C@@H]2O
Ki (OPRD1; ligand displacement, radioligand): > 10000 nM

C=CC(=O)N1CCC(COCC(=O)N2CCN(c3nc(-c4cnc(N)nc4C(F)F)nc(N4CCOC[C@@H]4C)n3)CC2)CC1
remaining binding (PIM3 (Homo sapiens, UniProt Q86V86); binding, competition with immobilised ligand; 1 µM): 100%

CCOc1ccc(C(=O)CC(SCc2ccc(Cl)cc2)C(=O)O)cc1 (stereo not shown)
Ki (OSBP; ligand displacement, FP): 238000 nM

O=C1CCc2ccccc2O1
Ki (CA1 (Homo sapiens, UniProt P00915); enzyme activity, inhibitor, stopped-flow): 40400 nM

Cc1nc2n(c(=O)c1CCN1CCC(c3noc4cc(F)ccc34)CC1)CCCC2O (stereo not shown)
Ki (DRD2 (Homo sapiens, UniProt P14416); cell-free assay): 7.39 nM and 8.18 nM

COc1cc(O)c2c(=O)cc(-c3ccc(O)c(O)c3)oc2c1
Ki (Replicase polyprotein 1ab main protease; enzyme activity, inhibitor, fluorescence): 16700 nM

O=C(/C=C/c1cccc(OS(=O)(=O)Oc2ccccc2)c1)NO
Ki (HDAC8; enzyme activity, inhibitor, fluorescence): 1800 nM

CCCCC(=O)Nc1ccc(-c2ccc3ncn(CCC)c(=O)c3c2)cn1
Ki (PIP4K2A (Homo sapiens, UniProt P48426); enzyme activity, inhibitor, radiometric): > 20000 nM

Cc1cc(C(C)(C)C)ccc1OS(=O)(=O)Oc1cccc(C(=O)NO)c1
Ki (HDAC8; enzyme activity, inhibitor, fluorescence): 1480 nM

Cc1cc(Oc2ncccc2CN2CCN(c3ccccc3C)CC2)ccc1-c1c(C)c(=O)[nH]c(=O)n1C
Ki (ADRA2C; ligand displacement, radioligand): 10.4 nM and ~11 nM

O=C(NO)c1cc(F)cc(OS(=O)(=O)Oc2ccc(C(F)(F)F)cc2)c1
Ki (HDAC8; enzyme activity, inhibitor, fluorescence): 2050 nM

Cc1ccc2[nH]c(=O)c(CNC3CCCCC3)cc2c1
Ki (ADRA1A (Homo sapiens, UniProt P35348, I178V); ligand displacement in cells, flow cytometry): 513 nM

COc1cccc(C(=O)CC(SCc2ccc(Cl)cc2)C(=O)O)c1 (stereo not shown)
Ki (AKT1 (Homo sapiens, UniProt P31749); ligand displacement, FP): 141000 nM

S=C(Nc1ccccc1)Nc1ccc(Oc2nnc(-c3ccc(Cl)cc3)c3ccccc23)cc1
viability (MCF7; cell growth or viability, MTT; 0.625 µM, 24 h): 99.7%

CCOc1ccc(C(=O)CC(SCc2ccccc2Br)C(=O)O)cc1 (stereo not shown)
Ki (OSBP; ligand displacement, FP): 185000 nM

Cc1ccc2oc(=O)cc(NCCO)c2c1
Ki (ADRA1A; ligand displacement in cells): 417000 nM

C#CCN(CCCN1CCN(C2CCCCC2)CC1)CC(=O)Nc1ccc(C(=O)c2ccccc2)cc1
Ki (TMEM97; ligand displacement, radioligand; cell membranes): 2 nM and < 5 nM and 2.11 nM

COc1ccc(Cl)cc1N1CCN(Cc2cccnc2Oc2ccc(-c3c(C)c(=O)[nH]c(=O)n3C)c(C)c2)CC1
Ki (ADRA2B; ligand displacement, radioligand): 100 nM

Cc1cc([C@@H](C)Nc2ccccc2C(=O)O)c2nc(N3CCC(F)(F)CC3)c(C#N)c(=O)n2c1
remaining binding (AKT2 (Homo sapiens, UniProt P31751); binding, competition with immobilised ligand; 1 µM): 96%

For quick reference, copied from above:
CNC(=O)[C@@]12C[C@@H]1[C@@H](n1ccc3c(NC)ncnc31)[C@H](O)[C@@H]2O
Ki (OPRD1; ligand displacement, radioligand): > 10000 nM

O=C(NO)c1cncc(OS(=O)(=O)Oc2ccc(C(F)(F)F)cc2)c1
Ki (HDAC1 (Homo sapiens, UniProt Q13547); enzyme activity, inhibitor, fluorescence): 621 nM

Cc1cc(Oc2ncccc2CN2CCN(c3ccc([N+](=O)[O-])cc3C(F)(F)F)CC2)ccc1-c1c(C)c(=O)[nH]c(=O)n1C
Ki (ADRA2B; ligand displacement, radioligand): 1310 nM

OC[C@@]12C[C@@H]1[C@@H](n1cnc3c(NC(C4CCCC4)C4CCCC4)nc(Cl)cc31)[C@H](O)[C@@H]2O
Ki (HTR2C; ligand displacement, radioligand): 1270 nM

Cc1ccc(N(O)N=Nc2ccc(S(=O)(=O)Nc3cc(C)on3)cc2)cc1
inhibition (ABTS scavenging; 240 µg/mL): 46.8%

COc1ccc(C(=O)CC(SCc2ccc(Cl)cc2)C(=O)O)cc1 (stereo not shown)
Ki (OSBP; ligand displacement, FP): 320000 nM

Cc1cc(Oc2ncccc2CN2CCN(c3ccccc3Cl)CC2)ccc1-c1c(C)c(=O)[nH]c(=O)n1C
Ki (ADRA2C; ligand displacement, radioligand): ~11 nM and 11 nM
